Published values from different studies.
Several values in a cell are separate wells, animals, samples, runs or records. ± marks the error that the study gave. ≈ marks a conversion by molar mass, not a printed value.

COc1ccc(-n2nc(C(C)=O)s/c2=N\N=C(/C)c2ccc(NC(C)=O)cc2)cc1 gave a viability of 5.68% (HepG2; 2.5 µM).
CC[C@H](C)[C@H](NC(=O)[C@H](C)NC(=O)[C@H](CCCCN)NC(=O)[C@H](CC(C)C)NC(=O)[C@H](C)NC(=O)[C@@H](NC(=O)[C@H](Cc1c[nH]cn1)NC(=O)[C@H](CC(C)C)NC(=O)[C@@H](NC(=O)[C@@H](NC(=O)[C@H](CCCCN)NC(=O)[C@H](C)NC(=O)[C@H](C)NC(=O)[C@H](CO)NC(=O)[C@H](CCCCN)NC(=O)[C@H](Cc1ccccc1)NC(=O)[C@@H](NC(=O)[C@H](CCCCN)NC(=O)[C@H](CC(C)C)NC(=O)[C@H](Cc1ccccc1)NC(=O)[C@H](CO)NC(=O)[C@H](CCCCN)NC(=O)[C@H](Cc1c[nH]c2ccccc12)NC(=O)[C@H](CCCCN)NC(C)=O)[C@@H](C)O)[C@@H](C)O)C(C)C)[C@@H](C)O)C(=O)N[C@@H](CO)C(=O)N[C@@H](CO)C(N)=O gave an MBC90 of 64 µg/mL (≈ 21.8 µM) (Pseudomonas aeruginosa; IPM-R; 81 strains).
With COc1c(C)c2c(c(O)c1C/C=C(\C)CCC(=O)O)C(=O)OC2 the IC50 was 2690 nM (COLO-678; cell proliferation; colon cancer).
COc1cc(CCC[P+](c2ccccc2)(c2ccccc2)c2ccccc2)c(OC)c2c1OCO2.[I-] gave a TGI of -6.02 log M (MDA-MB-468; SRB).
For CN1C(=O)C(C2C3=C(CC(C)(C)CC3=O)Oc3c(O)cccc32)C(=O)N(C)C1=O (stereo not shown), the lipid content was 0.586 OD492 and 0.596 OD492 and 0.573 OD492 (3T3-L1 preadipocytes; adipogenesis, Oil Red O staining; IC20, 14 days, single replicate).
For OC(c1ccccc1)(c1ccccc1)C1CCNCC1, the IC50 was 690 ± 450 nM (AC16 cardiomyocytes; mitochondrial membrane potential decrease; 1 h).
CC[C@H](C)[C@@H]1NC(=O)[C@@H]2CCCN2C(=O)[C@H](CC(C)C)NC(=O)[C@H](CC(C)C)NC(=O)CNC(=O)[C@@H](NC(=O)[C@@H](NC(=O)[C@H](CC(=O)O)NC(=O)CNC(=O)[C@@H](NC(=O)[C@H](C)NC(=O)CNC(=O)[C@H](CCCCN)NC(=O)[C@H](CC(C)C)NC(=O)[C@H](CC(C)C)NC(=O)[C@H](CCCCN)NC(=O)CNC(=O)[C@@H](NC(=O)[C@@H](N)CC(C)C)C(C)C)C(C)C)C(C)C)CSSC[C@@H](C(=O)O)NC1=O: “log2 fold change” -2.15 (RNA-seq, refers to: Cd52; mouse, traumatic brain injury model, frontal cortex and hippocampus; dose not given; reference: TBI alone).
For O=C(NCCc1ncc(C(F)(F)F)cc1Cl)c1ccccc1C(F)(F)F, the EC50 was 6.6 ± 0.94 µg/mL (≈ 16.6 µM) (Fusarium graminearum; fungal growth, inhibitor).
For COc1c(CCC[P+](c2ccccc2)(c2ccccc2)c2ccccc2)cc2c(c1OC)OCO2.[I-], the GI50 was -5.88 log M (SK-MEL-5; SRB).
Under “time to steady-state block”, COC(=O)[C@H]1[C@@H](OC(=O)c2ccccc2)C[C@@H]2CC[C@H]1N2C is recorded as at most 2 min (sodium channel; Block, tonic and use-dependent; GH3; concentration not given).
With CN1CCN(S(=O)(=O)c2cc([N+](=O)[O-])ccc2N(CCOS(C)(=O)=O)CCOS(C)(=O)=O)CC1 the event-free survival was 4.7 days (NSG mice, sample BD PDX; intraperitoneal, 25 mg/kg weekly x3).
For C/C=C(/C)C(=O)O[C@H]1C(C)=C2[C@H]([C@@H]1OC(=O)CCCCCCC)[C@@](C)(OC(C)=O)C[C@H](OC(=O)CCC)[C@@]1(O)[C@H]2OC(=O)[C@@]1(C)O, “normalized enrichment score” read 1.19 (HEK-293T; RNA-seq GSEA, refers to: Hallmark KRAS signaling up; 500 nM, 6 h; direction not given).
c1ccc(C(NCCNC(c2ccccc2)c2ccccc2)c2ccccc2)cc1 gave an inhibition of 109% (sodium channel site 2, rat; binding; 10 µM, Eurofins selectivity panel).
With CN1CCN(C2(CNC3CCN(c4cccc(-c5cc6cc(F)ccc6[nH]5)c4)CC3)CCC2)CC1 the CC50 was 7150 nM (UACC-257).
C[C@H](C(=O)N[C@H]1COc2ccccc2[C@@H]1S(C)(=O)=O)c1ccc(F)cc1 gave an inhibition of -3% (kainate receptor, rat; binding; 10 µM, Eurofins selectivity panel).
Cc1ccc(NNC(=O)c2nnc(CC34CC5CC(CC(C5)C3)C4)o2)cc1 gave an EC50 of over 12.5 µg/mL (Fusarium graminearum; fungal growth, inhibitor).

Excerpt of the above:
c1ccc(C(NCCNC(c2ccccc2)c2ccccc2)c2ccccc2)cc1 gave an inhibition of 109% (sodium channel site 2, rat; binding; 10 µM, Eurofins selectivity panel).
